Results collected from several papers.
Each numbered part is a random draw from the data of one study; scales do not carry over between parts. Positions count from the first letter of the parent shown.

Block 1
Target: CCND2, cyclin fold, Cln2 fusion (human)
Method: yeast growth competition, sequencing
Medium: yeast
Notes: weak parent motif
Reference: not given
Reading: higher = stronger binding
Quantity: normalised enrichment score
Parent: CDKN1C docking peptide (human); TSACRSLFGPVDH; partner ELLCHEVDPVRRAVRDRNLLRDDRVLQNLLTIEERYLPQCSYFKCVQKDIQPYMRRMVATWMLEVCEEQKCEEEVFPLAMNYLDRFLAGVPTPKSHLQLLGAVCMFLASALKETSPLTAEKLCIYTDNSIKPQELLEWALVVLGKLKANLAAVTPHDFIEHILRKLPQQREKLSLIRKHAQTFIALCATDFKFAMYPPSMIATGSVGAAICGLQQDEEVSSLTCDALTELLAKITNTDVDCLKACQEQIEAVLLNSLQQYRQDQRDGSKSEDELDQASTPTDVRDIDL
TSACRSLFGAVDH [P10A]: 0.275
TSACASLFGPVDH [R5A]: -0.0303
TSACKSLFGPVDH [R5K]: 0.195
TSACRSLFGPVAH [D12A]: -0.0109
TSACRSLFGPADH [V11A]: 0.265
TSACRSLFAPVDH [G9A]: 0.342
TSACRALFGPVDH [S6A]: 0.343

Block 2
Target: Interferon regulatory factor 5, full length, phosphomimetic (IRF5, Homo sapiens, UniProt Q13568-2, residues 1-514, S451D/S453D/S456D/S462D)
Method: protein-binding microarray
Form: double-stranded DNA, one strand shown
Medium: in vitro
Tested at: 940 nM top
Notes: 60-bp whole probe
With: salmon DNA 0.4 mg/ml
Reference: random background probes
Reading: higher = stronger binding
Quantity: fitted relative affinity
All sequences stand within: GCCTAGCAC … GTCTTGATTCGCTTGACGCTGCTG
GCCGATATCAGACTGGAGACGTGCTAG: -0.598 z-score
GACAGACTGGACTATCGGGACGTGCTA: -0.446 z-score
GACGGACTGAGACTGGAGACGTGCTAG: -0.322 z-score
TTAGATATCGACACTGGGTTAGTGCTA: 0.308 z-score
TTAGGTATCCGGTTTCGGTTAGTGCTA: 6.78 z-score
TTAGGTTTCCTTTCCCATTAGTGCTAG: 2.16 z-score
GACGGACTGCATTTCCTGACGTGCTAG: -0.733 z-score
GACTGTCTCGGTTTCGGGACGTGCTAG: 6.56 z-score
TCAGTGCTCATCTGTCATACTGTGCTA: 0.0892 z-score
TTAGGTATCGACTATCTGTTAGTGCTA: 5.93 z-score
AACGGTCTCCTTATCCTGACGTGCTAG: 0.432 z-score
TTAGATATCGACTTTCGGTTAGTGCTA: 3.6 z-score
CACGGTTTCCTTTTCCTGACGTGCTAG: 1.9 z-score
GACGGTTCCGTTTTCGGGACGTGCTAG: 1.05 z-score
TTTTCACTTTCTTTAACATAGTGCTAG: 3.5 z-score
TCAAGCTTTTCATTTTTTACTGTGCTA: 0.97 z-score
TCATGTTTACAGATGTTACTGTGCTAG: -0.142 z-score
GACGGTTTCGGGATTGGGGACGTGCTA: 7.04 z-score
GACGAACTGGGGACTAGAGACGTGCTA: 0.137 z-score

Block 3
Target: Ras GTPase-activating protein-binding protein 1, C-terminal RGG region (G3BP1, Homo sapiens, UniProt Q13283)
Sequence of UniProt Q13283 (whole entry, looked up): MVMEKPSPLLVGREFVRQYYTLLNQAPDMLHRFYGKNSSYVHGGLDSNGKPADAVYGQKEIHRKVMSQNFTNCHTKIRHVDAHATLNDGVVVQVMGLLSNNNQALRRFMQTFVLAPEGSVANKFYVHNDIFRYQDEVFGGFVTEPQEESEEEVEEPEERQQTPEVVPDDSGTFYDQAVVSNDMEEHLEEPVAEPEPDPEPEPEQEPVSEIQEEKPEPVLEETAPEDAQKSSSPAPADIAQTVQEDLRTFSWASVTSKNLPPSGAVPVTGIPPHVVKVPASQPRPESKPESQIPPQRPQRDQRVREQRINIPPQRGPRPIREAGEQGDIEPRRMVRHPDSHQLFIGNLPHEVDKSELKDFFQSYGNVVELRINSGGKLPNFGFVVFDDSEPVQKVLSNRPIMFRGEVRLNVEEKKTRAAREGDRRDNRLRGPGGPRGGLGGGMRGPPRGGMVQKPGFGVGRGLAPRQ
Method: RNA Bind-n-Seq
Form: RNA
Medium: in vitro
Tested at: 1 µM
Notes: whole 134-nt RNA, ends assumed
With: 150 mM KCl
Reference: input library
Reading: higher = stronger binding
Quantity: log2 enrichment
All sequences stand within: GGGAGUUCUACAGUCCGACGAUC … UGGAAUUCUCGGGUGUCAAGG
GCAGGAAGUAAAAACAAAUAAAAAUGCUUCGGAUAGUGGCAGGGGUGGGGGUUGCUAAGGAAAGGGUGGGAUGGGAGUGGGUAAAGAGUU: 1.59
UCAAGUCCUGUGCUACACAUCGUAUGUACCGAAUCGGGGAGGGGAGGGGAGGGGAAAGUAUUAUGUUACGCCGUUCGGAUCUGCACUUCC: 3.28
UCAGGAAGUAAAAACAAAUGGAAAUGCUUCGGAUAGUGGCAGGGGUGGGGGUUGCUAAGGAAAGGGUGGGAUGGGAGUGGGUAAAGAGUU: 1.85
AGUCCUGUGCUACACAUCGUAUGUACCGAAUCGGGAAAAAGGGUUUUUGGGUUUGGGAAAGUAUUAUGUUACGCCGUUCGGAUCUGCACU: 0.191
UCCUUUGUGUUUACAAAAGCACUGACCCUUUACCUUUUCUUUAGCAAGAAGAAUGGAAUGAACAUAAUGCCAAAAUAAUUAAAUAUAUAA: -0.39
AGUCCUGUGCUACACAUCGUAUGUACCGAAUCGGGAAAAAGGGAAAGGGAAAAAGGGAAAGUAUUAUGUUACGCCGUUCGGAUCUGCACU: 0.309
UCCUGUGCUACACAUCGUAUGUACCGAAUCGGGGAAAGGGGAAAAAAAGGGGUUUGGGGAAAGUAUUAUGUUACGCCGUUCGGAUCUGCA: 1.7
UGGGAGGUGGAUUUUGUUUAUUUUUUUAGCUCAUUUCCAGGGGUGGGAAUUUUUUUUUAAUAUGUGUCAUGAAUAAAGUUGUUUUUUAAA: 3.47
AUUCUUCAUUGAGGGUGAGGAUCUCCCAAUGGGAGACUGCUCUGAAAAGAGCAUGUGCUUUUUGAAUUAGAUAACCUACUAUAAUCAUGG: -1.2

Block 4
Target: Histone acetyltransferase KAT6A, winged helix 2, GST fusion (KAT6A, Homo sapiens, UniProt Q92794, residues 85-181)
Method: protein binding microarray
Form: double-stranded DNA, one strand shown
Medium: in vitro
Tested at: not given
Notes: 8-mer, flanks averaged, mean of 2 arrays, mostly near background
Reference: not given
Reading: higher = stronger binding
Quantity: E-score
Construct (chain): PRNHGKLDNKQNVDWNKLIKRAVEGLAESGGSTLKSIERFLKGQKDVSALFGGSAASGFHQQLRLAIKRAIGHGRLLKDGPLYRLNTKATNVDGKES
AACAGAGC: -4.5e-05
CAAAGGCA: 0.111
TCTGAAGA: 0.0491
GCACAGCC: 0.118
ATAAATAG: -0.0543
TTTAAAAA: 0.221
CTTGACAA: 0.0158
CCAGTGGG: 0.0981
GAGAGGTA: -0.123
ACTTCAAA: -0.0971
TCACCTAA: 0.00568
CGAAACAC: 0.164
CTCTACAC: -0.109
CTATGGGA: -0.0881
CCACGAGC: -0.0547
AATGGAAG: 0.0548
AAAGTTAA: 0.033
ATTGAACG: -0.046

Single results of other studies
PhoQ, residues 284 288 289 292 302 303 SLCLSL  fold induction (PhoP, residues 12 14 15 18 19 TQAIL (Escherichia coli, UniProt P23836); Sort-seq, item: YFP reporter; E. coli; PhoQ-PhoP variant library, with: 10 µM Mg2+; reference: high Mg2+ state, higher = stronger signaling): 1.41

Some of these lines once more (block 3):
GCAGGAAGUAAAAACAAAUAAAAAUGCUUCGGAUAGUGGCAGGGGUGGGGGUUGCUAAGGAAAGGGUGGGAUGGGAGUGGGUAAAGAGUU: 1.59
UCAAGUCCUGUGCUACACAUCGUAUGUACCGAAUCGGGGAGGGGAGGGGAGGGGAAAGUAUUAUGUUACGCCGUUCGGAUCUGCACUUCC: 3.28
UCAGGAAGUAAAAACAAAUGGAAAUGCUUCGGAUAGUGGCAGGGGUGGGGGUUGCUAAGGAAAGGGUGGGAUGGGAGUGGGUAAAGAGUU: 1.85
AGUCCUGUGCUACACAUCGUAUGUACCGAAUCGGGAAAAAGGGUUUUUGGGUUUGGGAAAGUAUUAUGUUACGCCGUUCGGAUCUGCACU: 0.191
UCCUUUGUGUUUACAAAAGCACUGACCCUUUACCUUUUCUUUAGCAAGAAGAAUGGAAUGAACAUAAUGCCAAAAUAAUUAAAUAUAUAA: -0.39
AGUCCUGUGCUACACAUCGUAUGUACCGAAUCGGGAAAAAGGGAAAGGGAAAAAGGGAAAGUAUUAUGUUACGCCGUUCGGAUCUGCACU: 0.309
UCCUGUGCUACACAUCGUAUGUACCGAAUCGGGGAAAGGGGAAAAAAAGGGGUUUGGGGAAAGUAUUAUGUUACGCCGUUCGGAUCUGCA: 1.7
UGGGAGGUGGAUUUUGUUUAUUUUUUUAGCUCAUUUCCAGGGGUGGGAAUUUUUUUUUAAUAUGUGUCAUGAAUAAAGUUGUUUUUUAAA: 3.47
AUUCUUCAUUGAGGGUGAGGAUCUCCCAAUGGGAGACUGCUCUGAAAAGAGCAUGUGCUUUUUGAAUUAGAUAACCUACUAUAAUCAUGG: -1.2
